Measured values of several laboratories.
Each line is one published result; not all experiments were run side by side.
Organism: Staphylococcus aureus

`COCCOC(=O)NCc1cc(N(C)C)c2c(c1O)C(=O)C1=C(O)[C@]3(O)C(=O)C(C(N)=O)=C(O)[C@@H](N(C)C)[C@@H]3C[C@@H]1C2` gave an MIC of 4 µg/mL (microbial growth, broth dilution).
The MIC of `N=C(N)NCCC[C@H](NC(=O)[C@H](Cc1c[nH]c2ccccc12)NC(=O)[C@H](CCC(N)=O)NC(=O)[C@H](Cc1c[nH]c2ccccc12)NC(=O)[C@H](CCCNC(=N)N)NC(=O)[C@@H](N)CCCNC(=N)N)C(=O)NCCCC[C@H](NC(=O)[C@H](CCCNC(=N)N)NC(=O)[C@H](Cc1c[nH]c2ccccc12)NC(=O)[C@H](CCC(N)=O)NC(=O)[C@H](Cc1c[nH]c2ccccc12)NC(=O)[C@H](CCCNC(=N)N)NC(=O)[C@@H](N)CCCNC(=N)N)C(=O)NCCCCCC(=O)N[C@@H](CSSC[C@H](NC(=O)CCCCCNC(=O)[C@H](CCCCNC(=O)[C@H](CCCNC(=N)N)NC(=O)[C@H](Cc1c[nH]c2ccccc12)NC(=O)[C@H](CCC(N)=O)NC(=O)[C@H](Cc1c[nH]c2ccccc12)NC(=O)[C@H](CCCNC(=N)N)NC(=O)[C@@H](N)CCCNC(=N)N)NC(=O)[C@H](CCCNC(=N)N)NC(=O)[C@H](Cc1c[nH]c2ccccc12)NC(=O)[C@H](CCC(N)=O)NC(=O)[C@H](Cc1c[nH]c2ccccc12)NC(=O)[C@H](CCCNC(=N)N)NC(=O)[C@@H](N)CCCNC(=N)N)C(N)=O)C(N)=O` is reported as 22 µM (broth microdilution; ATCC 25923; 24 h, 37 °C).
`CC1CCN(Cc2cc(N(C)C)c3c(c2O)C(=O)C2=C(O)[C@]4(O)C(=O)C(C(N)=O)=C(O)[C@@H](N(C)C)[C@@H]4C[C@@H]2C3)CC1` has an MIC of 0.25 µg/mL (MRSA 5, Tet M ribosome protection).
`O=C1OCC(NCc2ccccc2)N1/N=C/c1ccc([N+](=O)[O-])o1` (stereo not drawn) gave an MIC of 3.12 µg/mL (microbial growth, broth dilution; ATCC29213; 18 h).
The MIC of `CCCCCCCCCCCC[S+]([O-])CC1OC(OC2C(N)CC(N)C(OC3OC(CN)C(O)CC3N)C2O)C(O)C(N)C1O` (mixture of isomers) is reported as 75 µg/mL (methicillin-resistant).
The MIC of `CC(=O)NCc1cc(N(C)C)c2c(c1O)C(=O)C1=C(O)[C@]3(O)C(=O)C(C(N)=O)=C(O)[C@@H](N(C)C)[C@@H]3C[C@@H]1C2` is reported as > 64 µg/mL (MRSA 5, Tet M ribosome protection).
For `CNC(CC(C)C)C(=O)NC1C(=O)NC(CC(N)=O)C(=O)NC2C(=O)NC3C(=O)NC(C(=O)NC(C(=O)O)c4cc(O)cc(O)c4-c4cc3ccc4O)C(O)c3ccc(c(Cl)c3)Oc3cc2cc(c3OC2OC(CO)C(O)C(O)C2OC2CC(C)(NC(=O)CCCCCCCC[N+]3(C)CCOCC3)C(O)C(C)O2)Oc2ccc(cc2Cl)C1O` (stereo not drawn), the MIC was 512 µg/mL (agar dilution; MRSA clinical isolate MRSA3).
`CO[C@H]1[C@H](O)[C@@H](N)[C@@H](O[C@H]2[C@H](O[C@@H]3O[C@H](CO)[C@@H](O[C@H]4O[C@@H](CN)[C@@H](O)[C@H](O)[C@H]4N)[C@H]3O)[C@@H](O)[C@H](N)C[C@@H]2N)O[C@@H]1CO` has an MIC of 32 µg/mL (broth microdilution; MRSA isolate AG 044).
`CC[P+](CC)(CC)[Au-][S][C@@H]1O[C@H](COC(C)=O)[C@@H](O[C@@H]2O[C@H](COC(C)=O)[C@H](OC(C)=O)[C@H](OC(C)=O)[C@H]2OC(C)=O)[C@H](OC(C)=O)[C@H]1OC(C)=O` gave an MIC of 0.03 µM (broth microdilution; JE2 (USA300)).
With `Cc1cc(=O)nc(NC(=O)NCCCCCCNC(=O)NCCCCCCNC(=O)OCCOCCOCCOCCOCCOCCOCC(=O)N[C@@H](CCCCN)C(=O)N[C@@H](CCCCN)C(=O)N[C@@H](Cc2ccccc2)C(=O)N2CCC[C@H]2C(=O)N[C@@H](Cc2c[nH]c3ccccc23)C(=O)N[C@@H](Cc2c[nH]c3ccccc23)C(=O)N[C@@H](Cc2c[nH]c3ccccc23)C(=O)N2CCC[C@H]2C(=O)N[C@@H](Cc2ccccc2)C(=O)N[C@@H](CCCCN)C(=O)N[C@@H](CCCCN)C(N)=O)[nH]1` the MIC was 15 µM (MSSA RN 4220, RPMI medium; 24 h, 37 °C).
`CC(C)C[C@H](NC(=O)[C@H](CC(C)C)NC(=O)[C@H](CCCCN)NC(=O)[C@@H]1CCCN1C(=O)[C@H](CC(C)C)NC(=O)[C@H](CC(C)C)NC(=O)[C@H](CCCCN)NC(=O)[C@H](CC(C)C)NC(=O)[C@H](CC(C)C)NC(=O)[C@H](CO)NC(=O)CNC(=O)[C@H](CC(C)C)NC(=O)[C@@H](N)CC(C)C)C(N)=O` gave an MIC of 0.78 to 1.56 µM (broth microdilution; USA300 MRSA).
`O=C(CCc1cc(O)c(O)c(O)c1)NCCCCCCCCCC[P+](c1ccccc1)(c1ccccc1)c1ccccc1` gave an MIC of 16 µg/mL (broth microdilution; XU212 MRSA TetK; 24 h).
For `CN(C)c1cc(CN2CCCCC2)c(O)c2c1C[C@H]1C[C@H]3[C@H](N(C)C)C(O)=C(C(N)=O)C(=O)[C@@]3(O)C(O)=C1C2=O`, the MIC was 1 µg/mL (MRSA 5, Tet M, 50% mouse serum).
`CCN(CC)CCCN1/C(=C/c2cc(C)[n+](C)c3ccccc23)Sc2ccccc21` gave an MIC of 2 µg/mL (microbial growth, broth dilution; ATCCBAA41 MRSA).
`CCCCCCCCCc1nc2cc(Cl)ccc2c(=O)n1OC` gave an MIC of > 100 µM (broth microdilution; RN6390B).
